Measurements from different studies.
Lines come from different studies, so protocols differ. Several values in a cell are separate wells, animals, samples, runs or records. Numbers after ± are the reported error.

CC[C@H](C)[C@H](NC(=O)CN)C(=O)N[C@@H](CC(C)C)C(=O)N[C@@H](CC(=O)O)C(=O)N[C@@H](C)C(=O)N[C@H](C(=O)N[C@@H](CC(C)C)C(=O)N[C@@H](CC(=O)O)C(=O)N[C@@H](C)C(=O)N[C@H](C(=O)N[C@@H](CCCCN)C(=O)N[C@@H](C)C(=O)N[C@H](C(=O)N[C@@H](C)C(=O)N[C@@H](CCCCN)C(=O)N[C@@H](C)C(=O)N[C@H](C(=O)N[C@@H](CCCCN)C(=O)N[C@@H](C)C(=O)N[C@@H](CCCCN)C(=O)N[C@@H](C)C(=O)NCC(N)=O)[C@@H](C)CC)[C@@H](C)CC)[C@@H](C)CC)[C@@H](C)CC — helical content (circular dichroism; 30% TFE; 100 µM): 100%
CC1(C)C(/C=C/C2=C(Cl)C(=C/C=C3\N(CCCCCC(=O)O)c4ccccc4C3(C)C)/CCC2)=[N+](CCCCCC(=O)O)c2ccccc21 — Stokes shift (methanol): 26 nm
O=C1NCCc2nc(OCc3cccc(F)c3)ccc21 — Irwin test score (measured: Lacrimation; Sprague-Dawley rat, male; oral, 100 mg/kg, 1 h, score 0 none to 2 full; direction not given): 0
COc1cc(Nc2ncc3c(n2)-c2ccc(Cl)cc2C(c2c(F)cccc2OC)=NC3)ccc1C(=O)O — patients with abdominal pain (cancer patients; oral, dose not given, all grades any attribution, added: pembrolizumab): 13%
CCc1c(-c2ccccc2)c(-c2ccccc2)nn1-c1ccccc1-c1cccc(OCC(=O)O)c1 — MRT(0-inf) observed (Sprague-Dawley rat; oral): 2.76 h and 3.01 h and 2.99 h
N[C@@H](C[18F])C(=O)O — tracer uptake (PET imaging; female athymic nude mice, U-87 MG xenograft, tumor; intravenous, 20 min): 2.02 ± 0.39 %ID/cc
O=c1[nH]c(=O)n([C@H]2C[C@H](O)[C@@H](CO)O2)cc1CCC[18F] — biodistribution (male CD-1 nu/nu mice, RG2 tumour, brain; intravenous, dose not given, 2 h): 0.12 ± 0.04 %ID/g
O=C(CCCCCCC(=O)Nc1ccc(CC[18F])cc1)NO — tissue uptake (athymic nu/nu male mice, LNCaP xenograft, brain; intravenous, 2 h): 0.4 ± 0.1 %ID/g
COc1ccc([C@@H](O)c2cc(-c3ncnc4cc(N5CCOCC5)ccc34)c(F)cc2Cl)nn1 — lymphocyte count decrease TEAE (locally advanced rectal cancer patients; 150 mg, added: capecitabine and radiotherapy): 33%
Cc1ccc([C@H]2N[C@@H](c3ccc(C(C)(C)C)cc3)CO[C@@H]2C)cc1 — solubility (shake-flask, LC-HRMS; aqueous buffer; 16 h, pH 6.8): < 4 µM
Cc1cc(C(=O)NC(C)(C)COc2cccc3c2C(N)=NS(=O)(=O)N3)cc(C)n1.O=S(=O)(O)O — AUC(last) ratio (Sprague-Dawley rat, plasma; oral, 100 mg/kg, vehicle 1% methylcellulose; baseline: female over male): 1.78
CCOC(=O)N1C[C@@H](C2CCCCC2)N[C@@H](c2cccnc2)C1 — solubility (shake-flask, LC-HRMS; aqueous buffer; 16 h, pH 6.8): > 750 µM
CCn1c(=O)c(-c2cc(NC(=O)Nc3ccccc3)c(F)cc2Br)cc2cnc(NC)cc21 — participants with grade ≥ 3 TEAE (measured: lipase increased; healthy human, matched to moderate hepatic impairment; oral, 50 mg single dose): 0%
CCOC(=O)N1C[C@@H](C2CCOCC2)N[C@@H]([C@H](C)CC)C1 — solubility (shake-flask, LC-HRMS; aqueous buffer; 16 h, pH 6.8): > 750 µM
Cc1ccc([C@@H]2O[C@H](CO)[C@@H](O)[C@H](O)[C@H]2O)cc1Cc1ccc(-c2ccc(F)cc2)s1 — urinary chloride excretion change (Japanese type 2 diabetes patients; 400 mg, day 6, 24 h urine collection; baseline: baseline): -28.9 mEq
CN1CCC[C@H](CN2c3ccccc3Sc3ccccc32)C1.Cl — AUC(0-t) (ICR mouse female fasted, kidney; oral, 16 mg/kg): 12000 ng·h/mL
COc1cc2c(cc1OC)C(=O)C(CC1CCN(Cc3ccccc3)CC1)C2 (stereo not shown) — FEV1/FVC (spirometry; human subjects; dose not given; baseline: placebo): 0.492%
Cn1cc(-c2ccc(-c3cncc(Cl)c3N3CCC4(CCNC4=O)CC3)cc2)cn1 — fold change in expression (COLO 205; microarray, measured: STAMBPL1; concentration not given, 6 h, gene set AMSH-2; baseline: untreated cells): -2.4
Cc1cc([C@H]2C[C@H]3[C@@H](CF)SC(N)=N[C@@]3(c3ccc(F)cc3F)CO2)on1 — CSF concentration (129/SVE wild-type mouse, male; subcutaneous, 100 mg/kg, 3 h): 252 nM
C[C@H]1OC[C@H](C2CCCCC2)N[C@@H]1c1cccc(Cl)c1 — solubility (shake-flask, LC-HRMS; aqueous buffer; 16 h, pH 6.8): < 4 µM
CNCc1ccc(-c2[nH]c3cc(F)cc4c3c2CCNC4=O)cc1 — vomiting incidence (human patients; oral, 600 mg twice daily, grade 4): 0%
NC1(C(=O)N[C@@H](CCO)c2ccc(Cl)cc2)CCN(c2nc[nH]c3nccc2-3)CC1 — incidence of decreased appetite (metastatic CRPC patients; 400 mg b.i.d., grade 3 to 4, treatment-related, added: enzalutamide 160 mg daily): 0%
COc1cccc(-c2n[nH]c(SCc3ccccn3)n2)c1OC — Cmax (Sprague-Dawley rat, male, plasma; oral gavage, 100 mg/kg): 78.3 µg/mL
CN[C@H](CC(C)C)C(=O)N[C@H]1C(=O)N[C@@H](CC(N)=O)C(=O)N[C@H]2C(=O)N[C@H]3C(=O)N[C@H](C(=O)N[C@H](C(=O)O)c4cc(O)cc(O)c4-c4cc3ccc4O)[C@H](O)c3ccc(c(Cl)c3)Oc3cc2cc(c3O[C@@H]2O[C@H](CO)[C@@H](O)[C@H](O)[C@H]2O[C@H]2C[C@](C)(N)[C@H](O)[C@H](C)O2)Oc2ccc(cc2Cl)[C@H]1O — concentration (E-AB sensor; male C57BL/6J mice, cortex; intravenous, 35 mg/kg, 4 h): 4300 ± 700 nM
Cc1ccc(Sc2ccccc2N2CCNCC2)c(C)c1 — participants with TEAE (measured: Dizziness; healthy adult men; oral, 20 mg daily, 12 days): 0%
CCO[C@H]1CCN(Cc2c(OC)cc(C)c3[nH]ccc23)[C@H](c2ccc(C(=O)O)cc2)C1 — total half-life (healthy volunteers, plasma; oral, 200 mg single dose, geometric mean): 19.6 h
Cc1c(-c2ccc(N3CCc4cccc(C(=O)Nc5nc6ccccc6s5)c4C3)nc2C(=O)O)cnn1CC12CC3(C)CC(C)(C1)CC(OCCNCC[C@H](O)CO)(C3)C2 — mean arterial pressure change (beagle dog, male, anaesthetised; intravenous infusion, 0.01 mg/kg/min, 120 min; baseline: baseline): 4 mmHg
CCc1ccc(C(=O)Oc2ccc(C#N)c(F)c2)cc1 — placental accumulation (Sprague-Dawley rat, female, placenta; 5000 ng/mL in perfusate, 50 (unit not given), high dose, mixture of 21 LCMs): 36.3 ± 36.3 ng/g
Cn1cc(Nc2nccc(-c3ccc4c(c3)CN(C3COC3)CC[C@H]4NC(=O)c3cn(C(C)(C)C)nn3)n2)cn1 — percent change from baseline (measured: B cells, memory, non-class-switched; human, clinical trial, whole blood; 50 mg twice daily, follow-up): -3.88%
CCc1cc(C(=O)NC)c2nccc(N3CCc4c(cc(Cn5ccnc5)cc4-c4cn(C)nc4C(F)(F)F)C3=O)c2c1 — MRT(0-inf) (Sprague-Dawley rats, male, plasma; oral, 50 mg/kg): 1.9 h
CCCCC[C@H](O)CC[C@@H]1[C@H]2Cc3cccc(OCC(=O)O)c3C[C@H]2C[C@H]1O — geometric mean AUC(0-last) (LC-MS/MS; Japanese PAH patients under 56.7 kg, plasma; inhaled, 54 µg): 0.85 ng·h/mL
O=C(Nc1ccc(OC(F)(F)Cl)cc1)c1cnc(N2CC[C@@H](O)C2)c(-c2ccn[nH]2)c1 — grade ≥2 event rate (per laboratory record, measured: ALT increase; human patients; oral, dose not given): 0.6%
COc1cccc(OC)c1-c1cc(C(=O)NC2(C(=O)O)C3CC4CC(C3)CC2C4)nn1-c1ccc(C(=O)N(C)CCCN(C)CCCN(C)C(=O)CN2CCN(CC(=O)[O-])CCN(CC(=O)[O-])CCN(CC(=O)[O-])CC2)cc1C(C)C.[177Lu+3] (stereo not shown) — renal retention (HT-29 xenograft mouse, kidney; 168 h; baseline: initial uptake): 5 ± 3%
COc1ccc([C@@H]2COC[C@H](c3ccc(C(C)(C)C)cc3)N2)cc1 — solubility (shake-flask, LC-HRMS; aqueous buffer; 16 h, pH 6.8): < 4 µM
O=c1[nH]c(=O)n([C@@H]2O[C@H](CO)[C@@H](O)[C@@H]2F)cc1CCCC[18F] — biodistribution (nude mice, RG2 tumour, heart; intravenous, dose not given, 2 h): 0.11 ± 0.02 %ID/g
Cc1nnc2n1-c1sc(C#Cc3cnn(C)c3)c(Cc3ccccc3)c1COC2 — tolerability (mouse MDA-MB-231 xenograft; dose not given): not toxic
COc1ccc2c(c1)CN(C(=O)CCN1CCC(Cc3ccccc3)CC1)CC[S@@+]2[O-] — QRS duration (telemetry; conscious male beagle dogs; intravenous, 8 mg/kg, 0.5 h): 33 ± 10 ms
O=C(NO)[C@H]1CSC(c2ccc(OC(F)(F)F)c(Cl)c2)=N1 — solubility (aqueous buffer; pH 7.4): < 3.65 µg/mL
NC[C@@]1(CC(=O)O)[C@@H]2CC[C@H]3C[C@@H]2[C@@H]1C3 — Cmax increase (human, mild renal impairment, plasma; dose not given; baseline: normal renal function): 6%
FC(F)(F)c1ccc(CNc2ccc(Cc3c[nH]c4ncc(Cl)cc34)cn2)cn1 — treatment-related adverse events (measured: Rash; patients with advanced solid tumours, non-TGCT cohort; oral, 1000 mg/day, any grade): 8%
O=C(Cn1cnc([N+](=O)[O-])n1)Nc1ccc(N2CCOCC2)c(Cl)c1 — solubility (aqueous buffer; pH 7.4): 1.57 µg/mL
C[C@H](CCC(=O)NCC(=O)O)[C@H]1CC[C@H]2[C@@H]3[C@H](O)C[C@@H]4C[C@H](O)CC[C@]4(C)[C@H]3C[C@H](O)[C@]12C — Cmin (human, plasma; oral, dose not given, control): 14.9 ± 2.1 nM
Nc1ncn([C@H]2C[C@H](O)[C@@H](CO)O2)c(=O)n1 — mean deviation from nominal (mouse plasma; 80 ng/mL, 3 months, -80 °C, long-term stability, no THU): 7.54%

A few entries again:
CNCc1ccc(-c2[nH]c3cc(F)cc4c3c2CCNC4=O)cc1 — vomiting incidence (human patients; oral, 600 mg twice daily, grade 4): 0%
NC1(C(=O)N[C@@H](CCO)c2ccc(Cl)cc2)CCN(c2nc[nH]c3nccc2-3)CC1 — incidence of decreased appetite (metastatic CRPC patients; 400 mg b.i.d., grade 3 to 4, treatment-related, added: enzalutamide 160 mg daily): 0%
